Results pooled from the literature.
Compare with care: the assays were run in different laboratories. Numbers after ± are the reported error.
HTR2B: 5-hydroxytryptamine receptor 2B (HTR2B, Homo sapiens, UniProt P41595)
Sequence of UniProt P41595 (whole entry, looked up): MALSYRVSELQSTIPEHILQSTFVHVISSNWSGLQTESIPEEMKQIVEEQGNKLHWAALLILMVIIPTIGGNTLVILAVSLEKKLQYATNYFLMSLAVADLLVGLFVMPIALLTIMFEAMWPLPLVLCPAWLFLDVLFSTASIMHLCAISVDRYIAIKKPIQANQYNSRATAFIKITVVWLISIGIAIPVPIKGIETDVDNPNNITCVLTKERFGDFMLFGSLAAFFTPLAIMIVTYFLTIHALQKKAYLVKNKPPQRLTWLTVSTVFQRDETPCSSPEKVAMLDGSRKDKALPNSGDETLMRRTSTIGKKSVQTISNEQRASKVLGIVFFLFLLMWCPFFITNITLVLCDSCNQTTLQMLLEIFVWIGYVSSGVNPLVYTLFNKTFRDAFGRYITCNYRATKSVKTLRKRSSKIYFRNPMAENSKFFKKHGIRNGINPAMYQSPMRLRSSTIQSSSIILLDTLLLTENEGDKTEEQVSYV
Oprm1: Mu-type opioid receptor (Oprm1, Rattus norvegicus, UniProt P33535)
Sequence of UniProt P33535 (whole entry, looked up): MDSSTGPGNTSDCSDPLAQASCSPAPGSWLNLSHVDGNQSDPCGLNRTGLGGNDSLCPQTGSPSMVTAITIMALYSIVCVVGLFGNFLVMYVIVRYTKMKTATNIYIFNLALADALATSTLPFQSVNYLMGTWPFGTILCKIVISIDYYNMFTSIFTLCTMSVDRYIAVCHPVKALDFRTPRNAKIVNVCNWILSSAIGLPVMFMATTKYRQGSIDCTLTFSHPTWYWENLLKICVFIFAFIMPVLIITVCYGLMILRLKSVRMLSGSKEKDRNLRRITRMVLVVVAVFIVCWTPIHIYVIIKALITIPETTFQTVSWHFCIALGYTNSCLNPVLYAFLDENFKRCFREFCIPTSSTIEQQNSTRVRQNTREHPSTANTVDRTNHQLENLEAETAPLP
MCA2: Metacaspase-2 (MCA2, Trypanosoma brucei brucei, UniProt Q585F3)
Sequence of UniProt Q585F3 (whole entry, looked up): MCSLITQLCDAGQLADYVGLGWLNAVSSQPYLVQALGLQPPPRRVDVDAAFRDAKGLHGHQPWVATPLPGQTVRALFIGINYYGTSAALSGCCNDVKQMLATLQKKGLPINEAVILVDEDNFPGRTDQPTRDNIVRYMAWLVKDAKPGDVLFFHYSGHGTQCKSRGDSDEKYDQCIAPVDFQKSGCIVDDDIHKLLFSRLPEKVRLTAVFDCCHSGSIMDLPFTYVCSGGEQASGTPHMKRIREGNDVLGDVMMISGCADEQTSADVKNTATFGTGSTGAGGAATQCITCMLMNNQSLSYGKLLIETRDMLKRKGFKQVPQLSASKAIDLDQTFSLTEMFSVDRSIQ
blaNDM-1: Metallo-beta-lactamase type 2 (blaNDM-1, Klebsiella pneumoniae, UniProt C7C422)
Sequence of UniProt C7C422 (whole entry, looked up): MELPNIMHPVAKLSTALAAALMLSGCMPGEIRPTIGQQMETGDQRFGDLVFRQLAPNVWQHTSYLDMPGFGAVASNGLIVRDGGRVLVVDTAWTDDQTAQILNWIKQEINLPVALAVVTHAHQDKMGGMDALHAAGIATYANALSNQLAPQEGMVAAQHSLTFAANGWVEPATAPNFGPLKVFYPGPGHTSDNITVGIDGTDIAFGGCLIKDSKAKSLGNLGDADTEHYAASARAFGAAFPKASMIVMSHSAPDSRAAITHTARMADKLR
Genome polyprotein NS2B-NS3 protease: Genome polyprotein, NS2B-NS3 protease (ZIKV, UniProt A0A024B7W1)
Sequence of UniProt A0A024B7W1 (whole entry, looked up): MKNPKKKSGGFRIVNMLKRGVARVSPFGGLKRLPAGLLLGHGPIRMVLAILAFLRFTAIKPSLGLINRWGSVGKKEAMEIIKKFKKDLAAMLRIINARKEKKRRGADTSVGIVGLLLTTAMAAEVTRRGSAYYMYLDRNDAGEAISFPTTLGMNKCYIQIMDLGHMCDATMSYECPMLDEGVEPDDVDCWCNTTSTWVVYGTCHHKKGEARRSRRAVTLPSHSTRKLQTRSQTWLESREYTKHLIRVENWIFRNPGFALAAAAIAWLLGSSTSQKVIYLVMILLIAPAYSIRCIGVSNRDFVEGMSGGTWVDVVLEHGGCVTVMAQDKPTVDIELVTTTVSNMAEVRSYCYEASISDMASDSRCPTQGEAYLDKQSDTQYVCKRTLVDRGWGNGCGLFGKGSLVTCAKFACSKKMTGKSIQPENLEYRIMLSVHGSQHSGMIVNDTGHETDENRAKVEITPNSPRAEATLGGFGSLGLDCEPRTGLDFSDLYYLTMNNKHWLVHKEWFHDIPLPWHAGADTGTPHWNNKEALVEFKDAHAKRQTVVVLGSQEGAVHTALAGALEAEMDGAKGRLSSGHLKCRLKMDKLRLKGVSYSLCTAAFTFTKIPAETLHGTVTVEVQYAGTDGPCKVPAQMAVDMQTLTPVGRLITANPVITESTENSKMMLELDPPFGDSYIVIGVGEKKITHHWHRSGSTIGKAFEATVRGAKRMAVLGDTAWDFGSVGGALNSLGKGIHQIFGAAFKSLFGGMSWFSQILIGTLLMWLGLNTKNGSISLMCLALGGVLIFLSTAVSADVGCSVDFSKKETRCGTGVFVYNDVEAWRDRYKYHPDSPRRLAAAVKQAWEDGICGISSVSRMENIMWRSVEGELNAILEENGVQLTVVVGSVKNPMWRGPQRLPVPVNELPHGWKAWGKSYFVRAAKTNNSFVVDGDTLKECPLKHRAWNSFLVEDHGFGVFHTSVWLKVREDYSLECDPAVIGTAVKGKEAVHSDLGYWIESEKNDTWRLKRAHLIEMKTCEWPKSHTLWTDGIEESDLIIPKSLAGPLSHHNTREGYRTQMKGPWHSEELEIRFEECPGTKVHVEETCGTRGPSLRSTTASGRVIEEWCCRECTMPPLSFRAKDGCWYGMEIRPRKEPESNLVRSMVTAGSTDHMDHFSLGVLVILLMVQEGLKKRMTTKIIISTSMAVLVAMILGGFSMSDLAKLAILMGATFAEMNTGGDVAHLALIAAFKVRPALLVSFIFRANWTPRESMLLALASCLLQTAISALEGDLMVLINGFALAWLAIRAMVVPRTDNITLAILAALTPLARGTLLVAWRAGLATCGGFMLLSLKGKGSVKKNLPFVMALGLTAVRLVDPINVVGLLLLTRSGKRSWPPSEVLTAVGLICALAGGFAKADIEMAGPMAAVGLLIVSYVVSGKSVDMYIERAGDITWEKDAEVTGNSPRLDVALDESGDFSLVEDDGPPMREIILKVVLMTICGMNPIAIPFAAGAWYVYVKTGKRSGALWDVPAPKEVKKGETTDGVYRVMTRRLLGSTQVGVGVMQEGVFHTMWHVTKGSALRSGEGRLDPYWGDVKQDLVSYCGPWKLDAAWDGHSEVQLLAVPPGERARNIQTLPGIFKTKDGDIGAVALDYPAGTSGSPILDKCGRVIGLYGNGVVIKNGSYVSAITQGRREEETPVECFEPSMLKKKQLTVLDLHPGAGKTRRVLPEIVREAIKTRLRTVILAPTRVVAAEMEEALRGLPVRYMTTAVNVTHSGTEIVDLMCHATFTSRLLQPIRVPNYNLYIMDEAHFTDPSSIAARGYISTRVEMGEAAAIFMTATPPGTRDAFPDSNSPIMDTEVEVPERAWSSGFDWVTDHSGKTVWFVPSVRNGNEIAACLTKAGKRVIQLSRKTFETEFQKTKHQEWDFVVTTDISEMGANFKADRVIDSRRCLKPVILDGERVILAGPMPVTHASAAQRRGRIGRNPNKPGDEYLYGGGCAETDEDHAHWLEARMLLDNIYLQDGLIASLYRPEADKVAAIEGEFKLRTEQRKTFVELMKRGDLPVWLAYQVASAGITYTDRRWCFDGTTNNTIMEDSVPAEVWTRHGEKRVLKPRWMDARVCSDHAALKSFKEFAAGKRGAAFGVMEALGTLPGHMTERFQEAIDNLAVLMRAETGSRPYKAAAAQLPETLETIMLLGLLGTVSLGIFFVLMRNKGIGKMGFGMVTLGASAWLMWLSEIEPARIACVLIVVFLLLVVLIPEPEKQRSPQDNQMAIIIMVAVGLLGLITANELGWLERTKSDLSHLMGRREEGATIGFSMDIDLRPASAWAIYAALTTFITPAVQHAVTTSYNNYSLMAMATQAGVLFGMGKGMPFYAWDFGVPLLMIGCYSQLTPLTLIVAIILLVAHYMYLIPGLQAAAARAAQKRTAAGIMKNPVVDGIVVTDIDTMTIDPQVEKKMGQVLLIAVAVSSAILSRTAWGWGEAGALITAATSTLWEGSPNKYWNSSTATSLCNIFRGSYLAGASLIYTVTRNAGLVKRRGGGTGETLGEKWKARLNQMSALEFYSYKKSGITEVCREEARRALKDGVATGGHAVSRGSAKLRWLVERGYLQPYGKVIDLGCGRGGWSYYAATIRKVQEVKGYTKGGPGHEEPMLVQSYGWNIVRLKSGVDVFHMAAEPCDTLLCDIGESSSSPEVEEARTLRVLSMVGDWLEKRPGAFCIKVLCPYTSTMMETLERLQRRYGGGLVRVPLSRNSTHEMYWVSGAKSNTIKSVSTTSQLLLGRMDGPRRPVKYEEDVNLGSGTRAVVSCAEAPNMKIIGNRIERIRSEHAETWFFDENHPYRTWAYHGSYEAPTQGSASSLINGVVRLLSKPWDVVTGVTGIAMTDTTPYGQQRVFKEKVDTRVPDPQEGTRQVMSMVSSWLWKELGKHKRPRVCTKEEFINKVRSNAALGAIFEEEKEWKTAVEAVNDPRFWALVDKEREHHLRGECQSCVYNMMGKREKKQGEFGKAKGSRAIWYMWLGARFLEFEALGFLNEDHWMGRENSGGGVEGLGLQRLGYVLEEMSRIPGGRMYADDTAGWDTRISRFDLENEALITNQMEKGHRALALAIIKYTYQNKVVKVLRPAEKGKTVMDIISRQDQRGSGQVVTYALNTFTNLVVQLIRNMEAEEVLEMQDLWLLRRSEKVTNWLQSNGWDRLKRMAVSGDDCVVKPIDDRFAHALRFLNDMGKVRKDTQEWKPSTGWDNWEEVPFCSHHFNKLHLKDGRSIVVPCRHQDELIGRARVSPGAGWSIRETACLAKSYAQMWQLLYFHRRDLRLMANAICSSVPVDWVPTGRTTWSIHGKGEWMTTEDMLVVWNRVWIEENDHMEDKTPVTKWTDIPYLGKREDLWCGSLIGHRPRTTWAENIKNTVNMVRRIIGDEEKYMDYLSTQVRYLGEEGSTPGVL
Sequence of UniProt P26885 (whole entry, looked up): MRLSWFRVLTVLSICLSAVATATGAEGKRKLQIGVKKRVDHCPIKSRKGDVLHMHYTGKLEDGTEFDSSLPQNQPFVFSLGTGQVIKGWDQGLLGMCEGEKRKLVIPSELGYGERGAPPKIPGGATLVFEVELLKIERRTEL

The Ki of `CC(C)(COP(=O)(O)OP(=O)(O)OC[C@H]1O[C@@H](n2cnc3c(N)ncnc32)[C@H](O)[C@@H]1OP(=O)(O)O)[C@@H](O)C(=O)NCCC(=O)NCCSCC(=O)N[C@@H](CO)C(=O)NCC(=O)N[C@@H](CCCNC(=N)N)C(=O)NCC(=O)N[C@@H](CCCCN)C(=O)NCCOCCOCC(=O)NCCCC[C@H](NC(=O)CC[C@@H]1NC(=O)[C@@H](CCCNC(=N)N)NC(=O)[C@H](CCCNC(=N)N)NC(=O)[C@@H](CCCNC(=N)N)NC(=O)[C@H](CCCNC(=N)N)NC(=O)[C@H](Cc2csc3ccccc23)NC(=O)[C@@H](Cc2ccccc2)NC(=O)[C@H](Cc2ccccc2)NC1=O)C(N)=O` is reported as 65 nM (NAA40 (Homo sapiens, UniProt Q86UY6); enzyme activity, inhibitor, fluorescence).
With `COc1c(O)cc2c3c1-c1ccccc1CC3N(C)CC2` (stereo not drawn) the Ki was 3.38 nM (HTR2B; ligand displacement, radioligand; cell membranes).
`N=C(N)NCCC[C@H]1NC(=O)[C@@H](Cc2ccc(O)cc2)NC(=O)[C@H](CCCCN)NC(=O)[C@H](Cc2ccccc2)NC1=O` gave a Ki of 205 nM (Oprm1; ligand displacement, radioligand; cell membranes).
With `C[C@H](NC(=O)[C@H](CCCCN)NC(=O)c1ccccc1N)C(=O)N[C@@H](CCCNC(=N)N)C(=O)N[C@@H](Cc1ccccc1)C(=O)N[C@@H](CO)C(=O)N[C@@H](C)C(=O)N[C@@H](CCC(N)=O)C(=O)NCCNc1ccc([N+](=O)[O-])cc1[N+](=O)[O-]` the Ki was 3900 nM (MCA2; enzyme activity, competitive inhibitor; Trypanosoma brucei; together with: Z-FR-AMC substrate).
`Cc1cc(O)cc(C)c1CCC(=O)N[C@@H]1C/C=C\CC[C@@H](C(N)=O)NC(=O)[C@H](Cc2ccccc2)NC(=O)[C@H](Cc2ccccc2)NC1=O` gave a Ki of 23.5 nM (Oprm1; ligand displacement, radioligand; cell membranes).
The Ki of `CSCC[C@H](N)C(=O)N[C@@H](C)C(=O)N[C@H](C(=O)N[C@@H](CCCNC(=N)N)C(=O)N[C@@H](CCC(N)=O)C(=O)N[C@@H](C)C(=O)N[C@@H](CC(C)C)C(=O)NCC(=O)N[C@@H](CCCNC(=N)N)C(=O)NCC(=O)N[C@@H](CC(C)C)C(=O)N[C@@H](CCC(N)=O)C(=O)N[C@@H](CC(C)C)C(=O)NCC(=O)N[C@@H](CCCNC(=N)N)C(=O)N[C@@H](C)C(=O)N[C@@H](CC(C)C)C(=O)N[C@@H](CC(C)C)C(=O)N[C@@H](CC(C)C)C(=O)N[C@@H](CCCNC(=N)N)C(=O)N[C@@H](Cc1ccccc1)C(=O)N[C@H](C(=O)NCC(=O)N[C@@H](CCCCN)C(=O)N1CCC[C@H]1C(=O)NCC(=O)N[C@@H](CCCNC(=N)N)C(=O)N[C@@H](C)C(=O)N[C@@H](Cc1ccc(O)cc1)C(=O)NCC(=O)N[C@@H](CC(C)C)C(=O)NCC(=O)N[C@@H](CCCNC(=N)N)C(=O)N1CCC[C@H]1C(=O)NCC(=O)N1CCC[C@H]1C(=O)N[C@@H](C)C(=O)N[C@@H](C)C(=O)NCC(=O)N[C@@H](CS)C(=O)N[C@H](C(=O)N[C@@H](CCCNC(=N)N)C(=O)NCC(=O)N[C@@H](CCC(=O)O)C(=O)N[C@@H](CCCNC(=N)N)C(N)=O)C(C)C)[C@@H](C)O)C(C)C` is reported as 26.6 ± 4.7 nM (PMPCB/PMPCA (Homo sapiens, UniProt O75439+Q10713); inhibitor, LC-MS; room temperature, together with: MDH2 1-24 peptide substrate).
For `CC[C@H](C)[C@@H]1NC(=O)[C@@H]2CCCN2C(=O)[C@@H](CS)NC(=O)[C@H](CC(C)C)NC(=O)[C@@H](CCCNC(=N)N)NC(=O)[C@@H]([C@H](C)O)NC(=O)[C@H](CCC(=O)O)NC(=O)[C@@H]2CCCN2C1=O`, the Ki was 8100 nM (blaNDM-1; enzyme activity, inhibitor; together with: nitrocefin 1.5 µM).
For `CC(=O)N[C@@H](CC(C)C)C(=O)N[C@@H](CCCN=C(N)N)C(=O)N[C@H](C(=O)N[C@@H](CCCCN)C(=O)N[C@@H](CCCN=C(N)N)C(N)=O)C(C)C`, the Ki was 2200 nM (Proprotein convertase subtilisin/kexin type 7 (Homo sapiens, UniProt Q16549); enzyme activity, inhibitor).
With `CC(C)[C@H](NC(=O)[C@H](C)NC(=O)[C@H](CCCCN)NC(=O)c1ccccc1N)C(=O)N[C@@H](CO)C(=O)N[C@@H](CO)C(=O)N[C@@H](C)C(=O)N[C@@H](CCC(N)=O)C(=O)NCCNc1ccc([N+](=O)[O-])cc1[N+](=O)[O-]` the Ki was 8400 nM (MCA2; enzyme activity, competitive inhibitor; Trypanosoma brucei; together with: Z-FR-AMC substrate).
`Cc1cc(O)cc(C)c1C[C@H](N)C(=O)N[C@H](CCCNC(=N)N)C(=O)N[C@@H](Cc1ccccc1)C(=O)N[C@@H](CCCCN)C(=O)NCCNC(=O)[C@@H]1Cc2ccccc2CN1C(=O)[C@@H](N)Cc1c(C)cc(O)cc1C` has a Ki of 4.44 nM (Oprm1; ligand displacement, radioligand; cell membranes).
The Ki of `CC(C)C[C@H](NC(=O)[C@H](CCCCN)NC(=O)[C@H](CCCCN)NC(=O)Cc1cccc(CNC(=O)CCNC(=N)N)c1)B(O)O` is reported as 18.4 ± 4 nM (Genome polyprotein NS2B-NS3 protease; inhibitor; Zika virus).
`C[C@H](NC(=O)[C@H](CCCCN)NC(=O)c1ccccc1N)C(=O)N[C@@H](Cc1ccc(O)cc1)C(=O)N[C@@H](CO)C(=O)N[C@@H](CO)C(=O)N[C@@H](C)C(=O)N[C@@H](CCC(N)=O)C(=O)NCCNc1ccc([N+](=O)[O-])cc1[N+](=O)[O-]` has a Ki of 3800 nM (MCA2; enzyme activity, competitive inhibitor; Trypanosoma brucei; together with: Z-FR-AMC substrate).
`Cc1cc(O)cc(C)c1C[C@H](N)C(=O)N[C@H](CCCNC(=N)N)C(=O)N[C@@H](Cc1ccccc1)C(=O)N[C@@H](CCCCNC(=O)CN1CCN(CC(=O)O)CCN(CC(=O)O)CCN(CC(=O)O)CC1)C(N)=O` gave a Ki of 18.7 nM (Oprd1 (Mus musculus, UniProt P32300); ligand displacement, radioligand; cell membranes).
With `CC(C)(C)C(=O)OCOP(=O)(OCOC(=O)C(C)(C)C)C1CCCN(O)C1=O` (stereo not drawn) the log TGI was -4.85 log M (SN12C).
With `CC(C)C[C@H](NC(=O)[C@H](CCCCN)NC(=O)[C@H](CCCCN)NC(=O)Cc1ccccc1)B(O)O` the Ki was 845 ± 236 nM (Genome polyprotein NS2B-NS3 protease; inhibitor; Zika virus).
The inhibition of `CS(C)(=O)=Nc1ccc(-c2ccc(-c3nc4cc(O[C@@H]5CO[C@H]6[C@@H]5OC[C@H]6O)[nH]c4cc3F)cc2)cc1` is reported as -14% (AKT3 (Homo sapiens, UniProt Q9Y243); enzyme activity, inhibitor; 10 µM).
For `O[C@H]1[C@H](n2cnc3c(N[C@@H](C4CCC4)C4CC4)nc(I)nc32)[C@H]2C[C@@]2(C(F)F)[C@H]1O`, the Ki was 43.8 nM (HTR2B; ligand displacement, radioligand).
`NCC[C@H]1NC(=O)[C@@H](CCC(N)=O)NC(=O)[C@H](CCC(=O)O)NC(=O)[C@@H]2CCCN2C(=O)[C@H](C(c2ccccc2)c2ccccc2)NC(=O)[C@@H]2CCCN2C(=O)[C@H]2CCCN2C(=O)[C@H](CCC(N)=O)NC1=O` gave a Ki of 152000 nM (blaNDM-1; enzyme activity, inhibitor; together with: nitrocefin 1.5 µM).
The relative abundance of `COc1ccccc1-c1n[nH]c2nc(NC3CCN(C(=O)Cc4ccc(F)cc4F)CC3)ncc12` is reported as 1.01 (LMJF.01.0320; bead binding competition; Leishmania donovani extract; 10 µM; baseline: vehicle).
`CN(C)[C@H]1C[C@@]23CC[C@@]4(O2)C(=CC[C@]2(C)[C@@H](c5ccc6ccncc6c5)CC[C@H]24)C=C3[C@@H](O)[C@@H]1O` has an inhibition of -13.3% (MAP3K2 (Homo sapiens, UniProt Q9Y2U5); ATP probe labelling, inhibitor, KiNativ profiling; 1 µM).
`COc1ccc(CC[C@H]2OC(=O)[C@@H]3CCCCN3C(=O)C(=O)C(C)(C)COC(=O)/C=C/CCN(C)C(=O)[C@H](CC(C)C)N(C)C(=O)[C@@H]3CCCN3C(=O)[C@H](Cc3ccccc3)N(C)C(=O)[C@H](c3ccccc3)NC(=O)CCC(=O)Nc3cccc2c3)cc1OC` has a Ki of over 5000 nM (Peptidyl-prolyl cis-trans isomerase FKBP2 (Homo sapiens, UniProt P26885); enzyme activity, inhibitor).
`CC(C)C[C@@H]1NC(=O)[C@@H]2CCCN2C(=O)[C@@H](CS)NC(=O)[C@H](Cc2ccc(O)cc2)NC(=O)[C@@H](CCCNC(=N)N)NC(=O)[C@@H]([C@H](C)O)NC(=O)C(C)(C)NC(=O)[C@@H]2CCCN2C1=O` gave a Ki of 19600 nM (blaNDM-1; enzyme activity, inhibitor; together with: nitrocefin 1.5 µM).
With `C[C@H](NC(=O)[C@H](CCCCN)NC(=O)c1ccccc1N)C(=O)N[C@@H](CCC(N)=O)C(=O)N[C@@H](CO)C(=O)N[C@@H](CO)C(=O)N[C@@H](C)C(=O)N[C@@H](CCC(N)=O)C(=O)NCCNc1ccc([N+](=O)[O-])cc1[N+](=O)[O-]` the Ki was 5700 nM (MCA2; enzyme activity, competitive inhibitor; Trypanosoma brucei; together with: Z-FR-AMC substrate).
The Ki of `CN(C)[C@H](CNC(=O)/C=C/c1cccc2ccccc12)Cc1ccc(O)cc1` is reported as over 50000 nM (NTSR1 (Homo sapiens, UniProt P30989)).
The Ki of `CC[C@H](C)[C@H](NC(=O)[C@H](C)NC(=O)[C@H](CCCCN)NC(=O)c1ccccc1N)C(=O)N[C@@H](CO)C(=O)N[C@@H](CO)C(=O)N[C@@H](C)C(=O)N[C@@H](CCC(N)=O)C(=O)NCCNc1ccc([N+](=O)[O-])cc1[N+](=O)[O-]` is reported as 4800 nM (MCA2; enzyme activity, competitive inhibitor; Trypanosoma brucei; together with: Z-FR-AMC substrate).
With `CC(C)C[C@H]1NC(=O)[C@@H]2CCCN2C(=O)[C@@H](CS)NC(=O)[C@@H](C(C)C)NC(=O)[C@H](CO)NC(=O)[C@H](CCC(=O)O)NC(=O)[C@@H](CCCNC(=N)N)NC(=O)[C@H](C)NC1=O` the Ki was 415000 nM (blaNDM-1; enzyme activity, inhibitor; together with: nitrocefin 1.5 µM).
For `C[C@H](NC(=O)[C@H](CO)NC(=O)[C@H](CO)NC(=O)[C@@H]1CCCN1C(=O)[C@H](C)NC(=O)[C@H](CCCCN)NC(=O)c1ccccc1N)C(=O)N[C@@H](CCC(N)=O)C(=O)NCCNc1ccc([N+](=O)[O-])cc1[N+](=O)[O-]`, the Ki was 9400 nM (MCA2; enzyme activity, competitive inhibitor; Trypanosoma brucei; together with: Z-FR-AMC substrate).
With `Cc1cc(B2OC(C)(C)C(C)(C)O2)ccc1S(N)(=O)=O` the Ki was 4620 nM (Uncharacterized hydrolase SAUSA300_2518 (Staphylococcus aureus, UniProt Q2FDS6); enzyme activity, inhibitor).
With `CCCC[C@@H]1NC(=O)[C@@H](CCCCN)NC(=O)[C@H]2CCCN2C(=O)[C@H](CCC(=O)O)NC(=O)[C@@H]2C[C@@H](O)CN2C(=O)[C@H](Cc2ccccc2CN)NC(=O)[C@@H]2CCCN2C(=O)[C@@H](CS)NC1=O` the Ki was 2760 nM (blaNDM-1; enzyme activity, inhibitor; together with: nitrocefin 1.5 µM).
For `O=C1NC2(CC2)COc2ncc(F)cc2[C@H]2COCCN2c2ccn3ncc1c3n2`, the total cholesterol was 1.28 ± 0.4 mmol/L (Sprague-Dawley rat, male, serum; oral, 10 mg/kg/day, 4 weeks daily, end of recovery period).
`COc1cc2c(cc1O)C(CCc1ccc(Cl)cc1)N(C)CC2` (stereo not drawn) has a Ki of 1700 nM (HTR2B; cell-free assay, radioligand).
With `O=C1c2ccccc2CCCN1CCCCN1CCN(c2cccc(Cl)c2Cl)CC1` the Ki was 4370 nM (HTR1E (Homo sapiens, UniProt P28566); ligand displacement, radioligand).
With `Cc1cc(O)cc(C)c1C[C@H](N)C(=O)N[C@H](CCCNC(=N)N)C(=O)N[C@@H](Cc1ccccc1)C(=O)N(C)CC(=O)N(C)Cc1cc(C(F)(F)F)cc(C(F)(F)F)c1` the Ki was 5.17 ± 0.62 nM (OPRD1 (Homo sapiens, UniProt P41143, N90S)).

A few entries again:
The inhibition of `CS(C)(=O)=Nc1ccc(-c2ccc(-c3nc4cc(O[C@@H]5CO[C@H]6[C@@H]5OC[C@H]6O)[nH]c4cc3F)cc2)cc1` is reported as -14% (AKT3 (Homo sapiens, UniProt Q9Y243); enzyme activity, inhibitor; 10 µM).
For `O[C@H]1[C@H](n2cnc3c(N[C@@H](C4CCC4)C4CC4)nc(I)nc32)[C@H]2C[C@@]2(C(F)F)[C@H]1O`, the Ki was 43.8 nM (HTR2B; ligand displacement, radioligand).
`NCC[C@H]1NC(=O)[C@@H](CCC(N)=O)NC(=O)[C@H](CCC(=O)O)NC(=O)[C@@H]2CCCN2C(=O)[C@H](C(c2ccccc2)c2ccccc2)NC(=O)[C@@H]2CCCN2C(=O)[C@H]2CCCN2C(=O)[C@H](CCC(N)=O)NC1=O` gave a Ki of 152000 nM (blaNDM-1; enzyme activity, inhibitor; together with: nitrocefin 1.5 µM).
The relative abundance of `COc1ccccc1-c1n[nH]c2nc(NC3CCN(C(=O)Cc4ccc(F)cc4F)CC3)ncc12` is reported as 1.01 (LMJF.01.0320; bead binding competition; Leishmania donovani extract; 10 µM; baseline: vehicle).
